Assay results of several laboratories.
Every numbered part comes from another study and shows a few of its results, in no order.
Chain of UniProt P51817 (whole entry, looked up): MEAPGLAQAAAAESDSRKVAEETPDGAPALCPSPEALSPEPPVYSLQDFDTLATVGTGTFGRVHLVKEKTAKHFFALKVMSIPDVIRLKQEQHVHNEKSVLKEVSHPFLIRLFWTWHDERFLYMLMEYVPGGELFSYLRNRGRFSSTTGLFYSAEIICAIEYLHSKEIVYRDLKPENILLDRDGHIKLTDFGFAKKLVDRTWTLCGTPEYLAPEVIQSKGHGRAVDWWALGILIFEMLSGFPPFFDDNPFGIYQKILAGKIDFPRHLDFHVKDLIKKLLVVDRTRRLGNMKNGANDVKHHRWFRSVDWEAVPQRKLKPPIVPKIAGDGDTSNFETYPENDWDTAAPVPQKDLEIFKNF
Chain of UniProt P22455 (whole entry, looked up): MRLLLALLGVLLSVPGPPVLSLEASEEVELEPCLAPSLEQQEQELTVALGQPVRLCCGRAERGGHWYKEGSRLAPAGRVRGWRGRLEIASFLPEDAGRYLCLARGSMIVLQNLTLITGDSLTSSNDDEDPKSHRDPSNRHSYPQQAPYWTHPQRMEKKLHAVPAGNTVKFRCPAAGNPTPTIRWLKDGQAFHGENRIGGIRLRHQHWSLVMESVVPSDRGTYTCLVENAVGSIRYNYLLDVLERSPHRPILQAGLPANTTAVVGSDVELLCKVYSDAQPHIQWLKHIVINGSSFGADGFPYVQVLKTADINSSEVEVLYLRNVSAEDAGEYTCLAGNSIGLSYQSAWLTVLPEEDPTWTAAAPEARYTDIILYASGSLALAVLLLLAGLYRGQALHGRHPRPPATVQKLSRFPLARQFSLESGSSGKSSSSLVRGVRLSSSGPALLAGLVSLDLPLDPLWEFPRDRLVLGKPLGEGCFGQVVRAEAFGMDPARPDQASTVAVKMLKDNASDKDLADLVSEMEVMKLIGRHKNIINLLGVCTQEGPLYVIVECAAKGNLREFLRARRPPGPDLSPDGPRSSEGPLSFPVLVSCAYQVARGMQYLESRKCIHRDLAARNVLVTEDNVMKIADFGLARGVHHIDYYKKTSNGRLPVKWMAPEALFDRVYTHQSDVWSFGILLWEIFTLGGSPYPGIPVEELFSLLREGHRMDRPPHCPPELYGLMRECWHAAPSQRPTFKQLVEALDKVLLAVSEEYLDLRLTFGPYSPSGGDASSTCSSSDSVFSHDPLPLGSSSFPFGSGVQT
Chain of UniProt P37023 (whole entry, looked up): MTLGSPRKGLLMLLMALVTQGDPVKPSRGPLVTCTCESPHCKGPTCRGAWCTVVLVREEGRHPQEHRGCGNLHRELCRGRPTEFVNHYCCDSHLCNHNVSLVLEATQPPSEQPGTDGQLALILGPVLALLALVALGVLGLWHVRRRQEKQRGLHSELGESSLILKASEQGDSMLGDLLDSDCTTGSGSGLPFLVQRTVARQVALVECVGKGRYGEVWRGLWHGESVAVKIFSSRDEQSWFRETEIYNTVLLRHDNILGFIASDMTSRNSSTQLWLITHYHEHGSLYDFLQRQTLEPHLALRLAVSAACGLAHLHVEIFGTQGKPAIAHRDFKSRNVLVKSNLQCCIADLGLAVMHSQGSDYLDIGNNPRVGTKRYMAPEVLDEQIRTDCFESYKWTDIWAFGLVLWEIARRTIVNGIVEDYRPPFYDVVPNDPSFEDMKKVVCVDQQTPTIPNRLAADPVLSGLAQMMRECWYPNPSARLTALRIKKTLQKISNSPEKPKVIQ
Chain of UniProt P00519 (whole entry, unmodified, looked up): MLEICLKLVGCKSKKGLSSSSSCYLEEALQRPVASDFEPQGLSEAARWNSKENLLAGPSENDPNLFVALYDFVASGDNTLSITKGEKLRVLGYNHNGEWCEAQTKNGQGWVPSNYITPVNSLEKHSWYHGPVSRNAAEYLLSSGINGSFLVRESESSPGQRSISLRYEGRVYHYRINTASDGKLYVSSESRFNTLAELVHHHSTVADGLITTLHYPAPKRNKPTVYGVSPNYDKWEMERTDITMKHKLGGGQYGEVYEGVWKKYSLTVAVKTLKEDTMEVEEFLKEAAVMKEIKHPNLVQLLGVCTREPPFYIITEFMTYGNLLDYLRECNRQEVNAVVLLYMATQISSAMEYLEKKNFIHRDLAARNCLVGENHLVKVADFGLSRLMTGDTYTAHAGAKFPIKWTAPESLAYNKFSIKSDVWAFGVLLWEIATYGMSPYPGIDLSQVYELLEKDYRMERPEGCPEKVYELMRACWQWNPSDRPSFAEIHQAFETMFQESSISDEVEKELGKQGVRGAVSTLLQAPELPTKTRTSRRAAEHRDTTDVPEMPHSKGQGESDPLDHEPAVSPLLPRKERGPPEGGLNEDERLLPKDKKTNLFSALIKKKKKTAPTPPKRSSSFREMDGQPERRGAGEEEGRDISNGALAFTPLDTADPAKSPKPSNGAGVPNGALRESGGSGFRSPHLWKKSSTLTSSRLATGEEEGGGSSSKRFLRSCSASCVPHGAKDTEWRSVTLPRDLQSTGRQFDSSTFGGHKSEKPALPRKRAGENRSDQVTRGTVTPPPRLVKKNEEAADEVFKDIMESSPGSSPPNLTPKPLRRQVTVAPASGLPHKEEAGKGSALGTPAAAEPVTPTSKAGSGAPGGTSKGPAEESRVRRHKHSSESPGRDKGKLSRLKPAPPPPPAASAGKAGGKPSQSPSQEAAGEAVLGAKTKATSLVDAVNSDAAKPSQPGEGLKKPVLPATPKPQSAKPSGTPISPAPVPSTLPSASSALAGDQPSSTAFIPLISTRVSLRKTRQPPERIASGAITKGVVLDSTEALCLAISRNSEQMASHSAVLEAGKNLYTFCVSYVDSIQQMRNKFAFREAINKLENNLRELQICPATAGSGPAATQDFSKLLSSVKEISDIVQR
Chain of UniProt Q9H2X6 (whole entry, looked up): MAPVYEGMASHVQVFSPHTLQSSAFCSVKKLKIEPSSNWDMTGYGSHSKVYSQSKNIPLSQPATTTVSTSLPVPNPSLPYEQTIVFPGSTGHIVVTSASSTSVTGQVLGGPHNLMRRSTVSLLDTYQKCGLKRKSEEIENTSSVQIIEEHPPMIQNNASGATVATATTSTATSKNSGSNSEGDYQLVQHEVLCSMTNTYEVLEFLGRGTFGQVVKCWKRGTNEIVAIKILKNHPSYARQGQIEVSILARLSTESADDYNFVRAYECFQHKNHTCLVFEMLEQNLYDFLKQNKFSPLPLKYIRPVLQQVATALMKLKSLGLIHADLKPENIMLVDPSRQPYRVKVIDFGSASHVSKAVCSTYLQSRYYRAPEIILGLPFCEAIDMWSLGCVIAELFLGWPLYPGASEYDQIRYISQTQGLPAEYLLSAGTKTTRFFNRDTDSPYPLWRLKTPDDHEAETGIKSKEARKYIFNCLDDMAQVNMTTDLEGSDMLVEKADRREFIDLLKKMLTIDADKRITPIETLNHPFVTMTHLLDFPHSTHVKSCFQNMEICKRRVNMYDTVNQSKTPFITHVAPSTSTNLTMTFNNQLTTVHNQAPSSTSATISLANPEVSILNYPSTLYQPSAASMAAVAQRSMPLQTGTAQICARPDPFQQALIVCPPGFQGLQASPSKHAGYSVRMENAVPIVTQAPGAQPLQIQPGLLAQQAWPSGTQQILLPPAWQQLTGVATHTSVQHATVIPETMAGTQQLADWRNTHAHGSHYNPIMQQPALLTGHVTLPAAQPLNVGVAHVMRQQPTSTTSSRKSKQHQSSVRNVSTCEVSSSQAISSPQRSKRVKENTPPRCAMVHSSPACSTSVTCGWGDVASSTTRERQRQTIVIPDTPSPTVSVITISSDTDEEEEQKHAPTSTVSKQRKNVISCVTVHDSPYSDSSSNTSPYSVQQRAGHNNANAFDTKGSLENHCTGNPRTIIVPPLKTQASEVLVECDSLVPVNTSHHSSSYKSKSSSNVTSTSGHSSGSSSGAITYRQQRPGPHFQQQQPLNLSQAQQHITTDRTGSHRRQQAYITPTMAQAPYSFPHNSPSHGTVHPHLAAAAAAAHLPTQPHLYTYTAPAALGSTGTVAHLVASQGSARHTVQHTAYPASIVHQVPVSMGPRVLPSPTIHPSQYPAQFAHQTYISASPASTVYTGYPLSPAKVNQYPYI

Block 1 — host: mouse; medium: microsomes or S9; concentration: 2 µM; time: 0.5 h; quantity: remaining compound
O=c1[nH]c2ncccc2n1Cc1nnc2ccc(-c3cccc(F)c3)nn12: 99.8%
O=C(CCCOc1ccc(Cl)cc1Cl)Nc1ccc2c(c1)COC2=O: 65.7%
Cc1cc(N2CCCC(N3CCN(C(=O)Nc4cc(C)on4)CC3)C2=O)n(C)n1 (centres unmarked): > 100%
CCC1(O)CCOC2(CCN(C(=O)c3cc(Cl)ccc3F)CC2)C1 (centres unmarked): 15.9%
CCc1nc(-c2cccc(-c3noc(-c4sc(C)nc4C)n3)c2)cs1: 57.4%
O=C(O)c1cc(-c2ccccc2)nn1-c1ncccc1-c1ccccc1: 91%
N#Cc1ccc(C(=O)OC2c3ccccc3-c3ccccc32)[nH]1: 0.206%
CCS(=O)(=O)CC(=O)N1CC(C)(C)N(C)c2cc(Br)ccc21: 13%
NCCN(C1CCOCC1)S(=O)(=O)c1ccc(F)cc1F: 72.4%
CCOC(=O)c1cccc(NC(=O)N2Cc3c(sc4c3CCCC4)-n3cccc3C2C)c1 (centres unmarked): 2.56%

Block 2 — technique: competition with immobilised ligand; concentration: 0.1 µM; quantity: remaining binding
SMILES: Nc1c(C(=O)NCc2ccc(C(=O)NCCCC3CCCCC3)cc2)cnn1-c1ccccc1
SGK3 (Homo sapiens, UniProt Q96BR1); cell-free assay: 90%
DCLK2 (Homo sapiens, UniProt Q8N568); cell-free assay: 100%
Tyrosine-protein kinase ABL1, non-phosphorylated (ABL1, Homo sapiens, UniProt P00519, F317I); binding: 92%
FGFR4 (Homo sapiens, UniProt P22455); cell-free assay: 97%
HIPK2 (Homo sapiens, UniProt Q9H2X6); cell-free assay: 100%
MAP2K6 (Homo sapiens, UniProt P52564); cell-free assay: 79%
EGFR (Homo sapiens, UniProt P00533, del747-752/P753S); cell-free assay: 100%
ACVRL1 (Homo sapiens, UniProt P37023); cell-free assay: 100%
FLT3 (Homo sapiens, UniProt P36888, ITD); cell-free assay: 100%
STK3 (Homo sapiens, UniProt Q13188); cell-free assay: 100%
ACVR1B (Homo sapiens, UniProt P36896); cell-free assay: 100%
EPHA5 (Homo sapiens, UniProt P54756); cell-free assay: 100%
PRKX (Homo sapiens, UniProt P51817); cell-free assay: 87%
PIK3CA (Homo sapiens, UniProt P42336, I800L); cell-free assay: 96%
TAOK3 (Homo sapiens, UniProt Q9H2K8); cell-free assay: 96%
CDK5 (Homo sapiens, UniProt Q00535); cell-free assay: 100%

Block 3 — cell line: HaCaT; concentration: 100 µM; time: 18 h; quantity: viability
COc1cc(CNC(=O)CCCC/C=C/C(C)C)ccc1O: 49.7%
CCN(CC)CCc1nc(-c2ccccc2)no1: 55.8%
Cc1ccc(S(=O)(=O)NC(=O)NN2CC3CCC[C@@H]3C2)cc1 (stereo in doubt): 94.2%
CC1(C)S[C@@H]2[C@H](NC(=O)[C@H](N)c3ccccc3)C(=O)N2[C@H]1C(=O)O: 107%
O=C1CN(/N=C/c2ccc(-c3ccc([N+](=O)[O-])cc3)o2)C(O)=N1: 100%
O=c1cc[nH]c(=S)[nH]1: 98.1%
CC1CCc2cc(F)cc3c(=O)c(C(=O)O)cn1c23 (centres unmarked): 92.3%
Nc1nc(N)c2nc(-c3ccccc3)c(N)nc2n1: 65.4%

Other studies, line by line
CC(C)n1cnc(-c2ccc(F)cc2)c1-c1ncc(C(=O)Nc2ccc(N3CCN(C)CC3)cc2)[nH]1
Hypertriglyceridaemia incidence (IPF patients; 60 mg once daily, adverse event): 0%

Excerpt of the above (block 2):
SGK3 (Homo sapiens, UniProt Q96BR1); cell-free assay: 90%
MAP2K6 (Homo sapiens, UniProt P52564); cell-free assay: 79%
TAOK3 (Homo sapiens, UniProt Q9H2K8); cell-free assay: 96%
ACVRL1 (Homo sapiens, UniProt P37023); cell-free assay: 100%
FGFR4 (Homo sapiens, UniProt P22455); cell-free assay: 97%
HIPK2 (Homo sapiens, UniProt Q9H2X6); cell-free assay: 100%
